Earlier results that unrelated publications cite.
Lines come from different studies, so protocols differ. ± marks the error that the study gave.
EGFR L858R: Epidermal growth factor receptor (EGFR, Homo sapiens, UniProt P00533, L858R)
EGFR: Epidermal growth factor receptor (EGFR, Homo sapiens, UniProt P00533)

| Structure (SMILES) | target | assay | measurement | result |
| --- | --- | --- | --- | --- |
| C=CC(=O)N1CCC[C@@H](n2nc(-c3cccc4ccccc34)c3c(N)ncnc32)C1 | EGFR L858R |  | Ki | 0.044 ± 0.0065 µM |
| O=C(NN=Cc1ccc(O)cc1)Nc1cc2c(Nc3ccc(F)c(Cl)c3)ncnc2cc1OC1CCOC1 (stereo not drawn) | EGFR |  | IC50 | 0.056 µM |
| O=C(CSc1nc2ccccc2c(=O)n1-c1ccccc1)NNC(=O)c1cccc(Cl)c1 | EGFR |  | IC50 | 0.59 µM |
| Fc1ccc(Nc2nc(-c3ccc(Cl)cc3)nc3ccc(-c4ccc(F)cc4)cc23)cc1 | EGFR |  | IC50 | 0.0592 µM |
| COc1ccc(-c2nc3n(n2)CC(c2ccc(Cl)cc2)C3)cc1 (stereo not drawn) | EGFR | inhibitor | IC50 | 1.5 µM |
| C=CC(=O)N1CCC[C@@H](n2nc(-c3ccc4ccccc4c3)c3c(N)ncnc32)C1 | EGFR L858R |  | IC50 | 0.0011 ± 0.0006 µM |
| Cc1cc(C)nc(NS(=O)(=O)c2ccc(-n3cc(CSc4nc5ccccc5s4)nn3)cc2)n1 | EGFR | inhibitor | IC50 | 0.103 µM |
| COc1ccc(/C=C/C(=O)OCc2cn(-c3ccccc3)nc2-c2ccc(F)cc2)cc1 | EGFR |  | IC50 | 4.87 µM |
| CCc1cccc(NC(=O)CSc2nc3ccccc3c(=O)n2-c2ccccc2)c1 | EGFR | kinase activity, inhibitor | IC50 | 58.3 µM |

A few entries again:
| Structure (SMILES) | target | assay | measurement | result |
| --- | --- | --- | --- | --- |
| COc1ccc(-c2nc3n(n2)CC(c2ccc(Cl)cc2)C3)cc1 (stereo not drawn) | EGFR | inhibitor | IC50 | 1.5 µM |
